# Results of several laboratories.
SMILES,system,setting,Cmax
CC[C@H](C)[C@@H]1NC(=O)[C@@](C)(NC(=O)[C@H](CCCNC(=N)N)NC(=O)[C@H](CC(C)C)NC(=O)[C@@H](NC(=O)[C@H](CCC(N)=O)NC(=O)[C@H](CC(C)C)NC(C)=O)[C@@H](C)O)CCCC=CCCC[C@@](C)(C(=O)N[C@@H](CC(C)C)C(=O)N[C@@H](Cc2ccc3ccccc3c2)C(N)=O)NC(=O)[C@H](CCCNC(=N)N)NC(=O)[C@H](CCC(N)=O)NC1=O,BALB/c mouse,"intraperitoneal, 5 mg/kg",19600 ng/mL
CCOc1c([C@H](C)n2nc(C)c3c(N)ncnc32)cc(Cl)c(F)c1[C@@H]1CNC(=O)C1,"patients, monotherapy","oral, 5 mg once daily, cycle 1 day 1",354 nM
CNC(=O)c1ccc(-c2cnc3ncc(Cc4ccc5ncccc5c4)n3n2)cc1F,"human, plasma","oral, 200 mg, mean",1470 ng/mL
O=C(O)C[C@H](O)C[C@H](O)/C=C/c1c(C2CC2)nc2ccccc2c1-c1ccc(F)cc1,"FVB wild-type mouse, plasma","oral, 5 mg/kg, with: silymarin 500 mg/kg oral",34 nM
COc1nc(-c2cc(C)c(N[C@@H](C)c3cc(F)cc(F)c3)nn2)ccc1-n1cnc(C)c1,"cynomolgus monkey, male, plasma","oral, nasogastric, 2 mg/kg",304 ng/mL
CN1C(=O)[C@@H](NC(=O)c2nnc(Cc3ccccc3)[nH]2)COc2cccnc21,"healthy human, fasted, plasma","oral, 30 mg single dose, geometric mean",692 ng/mL
CC1(C)c2nc(-c3ccc(F)cc3)c(Nc3ccc(F)cc3)n2CCN1C(=O)CN,"NMRI mouse Plasmodium berghei-infected, blood","oral, 5 mg/kg, monotherapy",1020 nM
CN1CCC[C@H](CN2c3ccccc3Sc3ccccc32)C1.Cl,"fasted female ICR mouse, kidney","oral, 16 mg/kg",3810 ng/g
COc1ccc2[nH]c([S+]([O-])Cc3ncc(C)c(OC)c3C)nc2c1 (centres unmarked),"healthy Chinese volunteers, plasma","oral, 20 mg, fasted, CYP2C19 rapid metabolizers",191 ng/mL
CCn1cc(C(=O)N2CCOCC2)c(=O)c2cc(NC3Cc4ccccc4C3)cnc21,"human, fasted","oral suspension, 50 mg single dose, arithmetic mean",248 ng/mL
CCc1nc(C(N)=O)c(Nc2ccc(N3CCC(N4CCN(C)CC4)CC3)c(OC)c2)nc1NC1CCOCC1,"Japanese patients, plasma","oral, 300 mg, cycle 0 day -2, single dose, mean",292 ng/mL
CN(C(=O)n1cnc(-c2ccc[n+]([O-])c2)c1)C1CCCCC1,"cynomolgus monkey, male, plasma","oral, 1.0 mg/kg",503 ng/mL
CCN1CCN(Cc2ccc(Nc3ncc(F)c(-c4cc(F)c5nc6n(c5c4)[C@H](C)CCC6)n3)nc2)CC1,"human, plasma","100 mg multiple dosing, mean",173 ng/mL
C=CCn1c(=O)c2cnc(Nc3ccc(N4CCN(C)CC4)cc3)nc2n1-c1ccc2c(n1)[C@@](O)(CC)CC2,"female NOD/SCID mouse OVCAR-3 xenograft, plasma","oral, 100 mg/kg once daily, :2",6080 ng/mL
